Results from different studies.
Numbers after ± are the reported error.
Chain of UniProt O15146 (whole entry, looked up): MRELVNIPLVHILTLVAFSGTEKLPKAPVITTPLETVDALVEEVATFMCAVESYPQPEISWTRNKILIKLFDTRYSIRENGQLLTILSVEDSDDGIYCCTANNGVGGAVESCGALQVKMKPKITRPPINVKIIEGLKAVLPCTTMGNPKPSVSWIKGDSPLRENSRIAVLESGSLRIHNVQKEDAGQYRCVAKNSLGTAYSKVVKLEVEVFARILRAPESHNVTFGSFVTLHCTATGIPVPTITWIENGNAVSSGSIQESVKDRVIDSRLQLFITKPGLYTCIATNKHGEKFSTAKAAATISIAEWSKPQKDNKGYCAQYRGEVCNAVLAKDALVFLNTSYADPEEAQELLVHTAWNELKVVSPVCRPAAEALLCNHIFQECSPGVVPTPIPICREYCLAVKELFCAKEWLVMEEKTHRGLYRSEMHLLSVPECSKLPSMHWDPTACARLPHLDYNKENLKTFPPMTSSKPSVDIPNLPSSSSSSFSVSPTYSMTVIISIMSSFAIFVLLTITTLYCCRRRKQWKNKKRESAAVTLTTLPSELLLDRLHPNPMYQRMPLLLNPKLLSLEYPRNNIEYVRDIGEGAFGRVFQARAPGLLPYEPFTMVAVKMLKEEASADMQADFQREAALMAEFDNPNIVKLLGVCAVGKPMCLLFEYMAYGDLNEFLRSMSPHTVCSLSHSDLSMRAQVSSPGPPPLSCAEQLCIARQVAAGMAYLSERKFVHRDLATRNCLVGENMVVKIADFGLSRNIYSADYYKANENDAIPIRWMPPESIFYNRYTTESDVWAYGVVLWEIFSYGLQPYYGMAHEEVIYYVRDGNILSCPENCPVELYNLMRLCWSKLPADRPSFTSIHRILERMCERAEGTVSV
Chain of UniProt P35625 (whole entry, looked up): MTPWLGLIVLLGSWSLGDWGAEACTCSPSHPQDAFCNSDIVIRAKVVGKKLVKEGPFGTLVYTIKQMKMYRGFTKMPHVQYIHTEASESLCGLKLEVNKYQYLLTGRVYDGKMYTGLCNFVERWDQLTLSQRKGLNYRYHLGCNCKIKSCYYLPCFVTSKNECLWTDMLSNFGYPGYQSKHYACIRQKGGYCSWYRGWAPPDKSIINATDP
Chain of UniProt Q56UN5 (whole entry, looked up): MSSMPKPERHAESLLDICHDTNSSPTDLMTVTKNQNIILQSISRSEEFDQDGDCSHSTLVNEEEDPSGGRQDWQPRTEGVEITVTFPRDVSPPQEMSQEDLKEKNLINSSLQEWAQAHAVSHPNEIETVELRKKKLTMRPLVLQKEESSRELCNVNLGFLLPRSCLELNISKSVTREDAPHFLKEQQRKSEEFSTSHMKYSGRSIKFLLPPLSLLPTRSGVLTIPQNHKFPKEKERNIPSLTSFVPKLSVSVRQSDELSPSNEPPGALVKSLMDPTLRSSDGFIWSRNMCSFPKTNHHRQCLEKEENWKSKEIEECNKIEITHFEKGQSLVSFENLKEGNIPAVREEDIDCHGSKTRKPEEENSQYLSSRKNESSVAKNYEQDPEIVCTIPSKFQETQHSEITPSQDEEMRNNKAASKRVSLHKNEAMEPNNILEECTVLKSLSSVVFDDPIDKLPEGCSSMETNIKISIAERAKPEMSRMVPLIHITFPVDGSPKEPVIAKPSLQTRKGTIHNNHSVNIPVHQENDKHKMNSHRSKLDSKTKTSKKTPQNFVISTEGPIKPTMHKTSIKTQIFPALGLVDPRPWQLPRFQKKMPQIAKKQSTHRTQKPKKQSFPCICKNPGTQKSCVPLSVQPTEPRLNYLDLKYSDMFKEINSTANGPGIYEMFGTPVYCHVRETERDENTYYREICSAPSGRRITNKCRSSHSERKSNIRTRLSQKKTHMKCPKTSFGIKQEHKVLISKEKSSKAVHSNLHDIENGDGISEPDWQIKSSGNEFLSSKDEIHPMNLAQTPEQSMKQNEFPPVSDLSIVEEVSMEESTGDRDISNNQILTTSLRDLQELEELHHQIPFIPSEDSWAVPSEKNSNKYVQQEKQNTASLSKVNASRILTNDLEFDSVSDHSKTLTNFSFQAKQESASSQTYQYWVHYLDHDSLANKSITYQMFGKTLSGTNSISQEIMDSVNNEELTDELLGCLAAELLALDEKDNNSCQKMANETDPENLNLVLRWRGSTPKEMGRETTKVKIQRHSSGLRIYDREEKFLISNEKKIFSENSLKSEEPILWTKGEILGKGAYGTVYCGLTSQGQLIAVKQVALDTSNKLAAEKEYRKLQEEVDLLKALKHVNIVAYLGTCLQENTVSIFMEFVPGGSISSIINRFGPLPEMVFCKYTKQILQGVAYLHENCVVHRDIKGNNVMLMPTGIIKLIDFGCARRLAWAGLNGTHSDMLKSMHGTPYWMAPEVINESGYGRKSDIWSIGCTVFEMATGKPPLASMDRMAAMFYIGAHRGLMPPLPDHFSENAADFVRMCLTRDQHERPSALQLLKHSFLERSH
Chain of UniProt P21918 (whole entry, looked up): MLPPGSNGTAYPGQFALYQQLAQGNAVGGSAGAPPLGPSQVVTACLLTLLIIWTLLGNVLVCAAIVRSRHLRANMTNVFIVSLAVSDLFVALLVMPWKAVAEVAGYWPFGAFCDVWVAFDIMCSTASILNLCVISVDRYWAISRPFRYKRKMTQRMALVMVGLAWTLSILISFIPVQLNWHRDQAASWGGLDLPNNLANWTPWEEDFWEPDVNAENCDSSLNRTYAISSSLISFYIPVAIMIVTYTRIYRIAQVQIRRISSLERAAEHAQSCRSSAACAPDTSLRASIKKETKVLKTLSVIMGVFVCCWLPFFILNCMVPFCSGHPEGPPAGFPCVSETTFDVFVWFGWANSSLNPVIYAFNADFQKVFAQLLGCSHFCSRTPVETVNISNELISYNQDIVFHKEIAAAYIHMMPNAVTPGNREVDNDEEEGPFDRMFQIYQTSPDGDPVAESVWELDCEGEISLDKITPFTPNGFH
Chain of UniProt Q9SZU7 (whole entry, unmodified, looked up): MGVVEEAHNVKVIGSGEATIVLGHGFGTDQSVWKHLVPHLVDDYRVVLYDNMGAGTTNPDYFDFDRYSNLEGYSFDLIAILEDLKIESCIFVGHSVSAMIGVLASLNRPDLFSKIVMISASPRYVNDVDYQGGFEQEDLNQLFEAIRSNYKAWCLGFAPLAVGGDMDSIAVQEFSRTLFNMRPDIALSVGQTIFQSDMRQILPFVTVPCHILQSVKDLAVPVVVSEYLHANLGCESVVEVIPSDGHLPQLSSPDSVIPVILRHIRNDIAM
Chain of UniProt Q06180 (whole entry, looked up): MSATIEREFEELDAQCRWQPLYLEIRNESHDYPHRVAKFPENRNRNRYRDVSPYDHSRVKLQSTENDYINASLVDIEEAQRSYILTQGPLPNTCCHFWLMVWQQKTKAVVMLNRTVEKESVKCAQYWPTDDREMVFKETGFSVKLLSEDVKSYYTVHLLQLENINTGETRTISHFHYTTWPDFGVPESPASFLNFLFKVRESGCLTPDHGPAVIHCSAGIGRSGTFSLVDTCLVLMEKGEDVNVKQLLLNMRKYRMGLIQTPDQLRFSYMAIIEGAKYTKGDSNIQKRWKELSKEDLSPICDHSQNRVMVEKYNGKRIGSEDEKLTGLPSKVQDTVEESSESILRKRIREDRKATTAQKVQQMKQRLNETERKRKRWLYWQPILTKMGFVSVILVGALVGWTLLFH
Chain of UniProt P05067 (whole entry, looked up): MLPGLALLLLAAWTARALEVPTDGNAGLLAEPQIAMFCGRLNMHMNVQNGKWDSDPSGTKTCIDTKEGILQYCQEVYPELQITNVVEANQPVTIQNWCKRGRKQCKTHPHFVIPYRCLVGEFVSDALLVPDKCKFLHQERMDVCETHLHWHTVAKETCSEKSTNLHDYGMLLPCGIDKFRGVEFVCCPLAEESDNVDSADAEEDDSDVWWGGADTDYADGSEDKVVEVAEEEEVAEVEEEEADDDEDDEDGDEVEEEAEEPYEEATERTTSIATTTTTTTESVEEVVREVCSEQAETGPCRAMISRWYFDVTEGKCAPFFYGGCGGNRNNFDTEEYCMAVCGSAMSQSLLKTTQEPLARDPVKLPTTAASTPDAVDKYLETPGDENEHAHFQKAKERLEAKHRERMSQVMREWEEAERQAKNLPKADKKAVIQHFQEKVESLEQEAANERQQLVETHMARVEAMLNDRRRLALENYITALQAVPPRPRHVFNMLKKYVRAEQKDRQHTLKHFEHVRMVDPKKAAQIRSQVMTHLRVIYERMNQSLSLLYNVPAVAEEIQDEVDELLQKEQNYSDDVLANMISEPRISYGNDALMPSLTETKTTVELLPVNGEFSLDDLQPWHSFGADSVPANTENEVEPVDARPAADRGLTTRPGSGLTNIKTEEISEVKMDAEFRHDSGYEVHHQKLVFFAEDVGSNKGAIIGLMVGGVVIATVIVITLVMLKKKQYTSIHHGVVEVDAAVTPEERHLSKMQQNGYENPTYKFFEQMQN
Chain of UniProt P43220 (whole entry, unmodified, looked up): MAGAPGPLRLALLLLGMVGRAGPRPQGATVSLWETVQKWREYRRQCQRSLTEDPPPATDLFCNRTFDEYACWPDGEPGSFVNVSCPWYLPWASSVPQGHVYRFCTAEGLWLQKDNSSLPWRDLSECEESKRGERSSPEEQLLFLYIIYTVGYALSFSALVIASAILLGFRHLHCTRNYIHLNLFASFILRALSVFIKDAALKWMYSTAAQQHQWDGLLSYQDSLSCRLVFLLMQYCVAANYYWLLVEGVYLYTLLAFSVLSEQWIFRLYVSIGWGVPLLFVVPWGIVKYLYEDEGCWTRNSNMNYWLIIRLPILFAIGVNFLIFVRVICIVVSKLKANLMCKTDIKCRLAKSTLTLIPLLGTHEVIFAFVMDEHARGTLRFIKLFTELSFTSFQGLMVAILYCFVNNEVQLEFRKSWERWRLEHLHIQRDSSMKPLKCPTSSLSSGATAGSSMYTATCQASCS

Cc1cccc2c1N(C(=O)n1ccnn1)CC2  Kd (KAI2 (Arabidopsis thaliana, UniProt Q9SZU7, H246F); ITC; H246F mutant, mean): 99900 nM
Cc1c[nH]c2nccc(-c3ccc(C(=O)N[C@@H]4c5c(F)cc(C(F)F)cc5C[C@@H]4O)cn3)c12  Kd (MAP3K19 (Homo sapiens, UniProt Q56UN5); binding, competition with immobilised ligand): 180 nM
Cn1ccc2c(N3CCN(CCCCOc4ccc5c(c4)NC(=O)CC5)CC3)cccc21  Ki (DRD5 (Homo sapiens, UniProt P21918); ligand displacement, radioligand): > 10000 nM
CC1(C)C[C@@H](Nc2cccc(-c3sc(C(=O)O)c(OCC(=O)O)c3Cl)c2)CCN1S(=O)(=O)Cc1cccc(NC(=O)CN2CCC(c3ccc4c(c3)oc(=O)n4C3CCC(=O)NC3=O)CC2)c1 (stereo partly drawn)  DC50 (Tyrosine-protein phosphatase non-receptor type 2 (Ptpn2, Mus musculus, UniProt Q06180); degrader, Western blot; B16-F10; 24 h): 25 nM
CC(=O)N[C@@H]1[C@@H](O[C@@H]2O[C@H](C(=O)O)[C@@H](O[C@@H]3O[C@H](COS(=O)(=O)O)[C@@H](OS(=O)(=O)O)[C@H](O[C@@H]4O[C@H](C(=O)O)[C@@H](O[C@@H]5O[C@H](COS(=O)(=O)O)[C@@H](OS(=O)(=O)O)[C@H](O[C@@H]6O[C@H](C(=O)O)[C@@H](OS(=O)(=O)O)[C@H](OS(=O)(=O)O)[C@H]6OS(=O)(=O)O)[C@H]5NC(C)=O)[C@H](OS(=O)(=O)O)[C@H]4OS(=O)(=O)O)[C@H]3NC(C)=O)[C@H](OS(=O)(=O)O)[C@H]2OS(=O)(=O)O)[C@H](OS(=O)(=O)O)[C@@H](COS(=O)(=O)O)O[C@H]1N=[N+]=[N-]  EC50 (Metalloproteinase inhibitor 3 (Homo sapiens, UniProt P35625); fluorescence polarization competition; Metalloproteinase inhibitor 3 67 nM, together with: TAMRA-labelled probe): 560 ± 38 nM
CC[C@H]([C@H](C)c1ccc(O)cc1)[C@H](CC)c1ccc(O)cc1  EC50 (Estrogen receptor (ESR1, Homo sapiens, UniProt P03372); reporter gene, luciferase reporter (3xERE); 293T; 24 h): 0.605 nM
COc1cc(/C=C/C(=O)C2=C(/C=C/c3ccc(O)c(OC)c3)NC(=S)NC2[c-]2cccc2)ccc1O.[Fe+2].c1cc[cH-]c1 (racemic)  DC50 (Amyloid-beta precursor protein, Aβ40 fibrils (APP, Homo sapiens, UniProt P05067); amyloid fibril disassembly, thioflavin T fluorescence; 24 h, 37 °C, together with: 25 µM amyloid-beta): 20000 ± 1100 nM
Cc1nn(-c2cccc(N)c2)c(=O)c2cnc(Nc3ccc(N4CCNCC4)cc3)nc12  IC50 (MUSK (Homo sapiens, UniProt O15146); enzyme activity, inhibitor): > 10000 nM
COc1cc(C2C(NC(=O)c3ccc(NC(=O)OC(C)(C)C)cc3)(C(=O)O)C(c3ccc(OC(=O)c4cccs4)c(OC)c3)C2(NC(=O)c2ccc(NC(=O)OC(C)(C)C)cc2)C(=O)O)ccc1OC(=O)c1cccs1 (stereo not drawn)  EC50 (GLP1R (Homo sapiens, UniProt P43220, R380A); cAMP, agonist): 41.7 nM

For quick reference, copied from above:
CC1(C)C[C@@H](Nc2cccc(-c3sc(C(=O)O)c(OCC(=O)O)c3Cl)c2)CCN1S(=O)(=O)Cc1cccc(NC(=O)CN2CCC(c3ccc4c(c3)oc(=O)n4C3CCC(=O)NC3=O)CC2)c1 (stereo partly drawn)  DC50 (Tyrosine-protein phosphatase non-receptor type 2 (Ptpn2, Mus musculus, UniProt Q06180); degrader, Western blot; B16-F10; 24 h): 25 nM
